Results collected from several papers.
Parts stem from different laboratories: compare values within a part only. Substitutions count along the parent as printed.

Block 1
Target: Histone acetyltransferase KAT6A, winged helix 1, GST fusion (KAT6A, Homo sapiens, UniProt Q92794, residues 1-85)
Technique: protein binding microarray
Form: double-stranded DNA, one strand shown
Medium: in vitro
Tested at: not given
Setting: 8-mer, flanks averaged, mean of 2 arrays, mostly near background
Baseline: not given
Direction: higher = stronger binding
Endpoint: E-score
Construct (chain): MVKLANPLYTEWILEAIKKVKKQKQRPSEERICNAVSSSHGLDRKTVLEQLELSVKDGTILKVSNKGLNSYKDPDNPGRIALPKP
AGCCGATG: 0.0807
ACCTTACC: -0.0855
AGTCCAAT: -0.138
GCGAGTTA: 0.127
CGTACCGC: 0.382
CCAGACGA: -0.172
GCGCCTCA: 0.253

Block 2
Target: ABI1, truncated, D143A, DHFR fusion (Arabidopsis thaliana)
Technique: DHFR PCA, deep sequencing
Medium: yeast
Setting: methotrexate growth selection, single substitutions
With: (+)-ABA 0.032 µM
Baseline: wild-type fitted maximum
Direction: higher = stronger binding
Endpoint: relative binding score
Parent: PYL1, truncated, DHFR fusion (Arabidopsis thaliana); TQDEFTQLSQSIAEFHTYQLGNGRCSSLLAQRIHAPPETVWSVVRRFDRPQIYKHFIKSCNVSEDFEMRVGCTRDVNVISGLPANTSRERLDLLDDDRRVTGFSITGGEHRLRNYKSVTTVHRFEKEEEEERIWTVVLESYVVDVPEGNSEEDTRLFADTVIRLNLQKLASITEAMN
K54S: 3.07%
D65C: 5.5%
R155W: -0.631%
T119A: 0.309%

Block 3
Target: CCNA1, cyclin fold, Cln2 fusion (human)
Technique: yeast growth competition, sequencing
Medium: yeast
Setting: weak parent motif
Baseline: not given
Direction: higher = stronger binding
Endpoint: normalised enrichment score
Parent: WEE1 docking peptide (human); HKTFRKLRLFDTP; partner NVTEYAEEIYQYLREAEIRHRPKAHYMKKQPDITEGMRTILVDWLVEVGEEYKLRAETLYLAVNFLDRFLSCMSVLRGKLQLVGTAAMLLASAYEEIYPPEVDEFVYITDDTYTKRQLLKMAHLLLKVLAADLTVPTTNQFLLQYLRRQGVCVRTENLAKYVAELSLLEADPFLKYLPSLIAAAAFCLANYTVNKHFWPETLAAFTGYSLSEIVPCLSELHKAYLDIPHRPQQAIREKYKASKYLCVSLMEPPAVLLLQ
HHTFRKLRLFDTP [K2H]: -0.0219
HKTFPKLRLFDTP [R5P]: -0.226
QKTFRKLRLFDTP [H1Q]: 0.597
HKTFRKFRLFDTP [L7F]: 0.143
HKTFRKLRLWDTP [F10W]: 0.202

Single results of other studies
PhoQ, residues 284 288 289 292 302 303 ALASRC — fold induction (PhoP, residues 12 14 15 18 19 NQGLL (Escherichia coli, UniProt P23836); Sort-seq, refers to: YFP reporter; E. coli; PhoQ-PhoP variant library, with: 10 µM Mg2+; baseline: high Mg2+ state, higher = stronger signaling): 1.99
